Measured values pooled from the literature.
Compare with care: the assays were run in different laboratories. “And” joins repeats or separate records; there may be more than shown. Numbers after ± are the reported error.

COc1cc(N2CCN(C(=O)C3CCCN3)CC2)ccc1Nc1ncc(Cl)c(Nc2ccccc2P(C)(C)=O)n1 (stereo not shown) — tumour volume (nude mice, NCI-H3122 xenograft; intraperitoneal, 10 mg/kg every other day, day 1): 37.6 mm3 and 42.5 mm3 and 71.8 mm3 and 43.9 mm3 and 32 mm3
COc1cnc2cccc(N3CCc4c(cc(Cn5ccnc5)cc4-c4cn(C)nc4C(F)(F)F)C3=O)c2c1 — tumour volume (BALB/c nude mice, MV4-11 xenograft; intraperitoneal, 100 mg/kg, day 10): 109 mm3 and 149 mm3 and 148 mm3 and 166 mm3 and 171 mm3
O=S(=O)(NCc1ccncc1)c1ccc(C2CCCCC2)cc1 — downregulated genes number (bulk RNA sequencing; CK-p25 mice, female, microglia; intraperitoneal, 0.3 mg/kg daily for 2 weeks, 336 h): 746 genes
COc1ccc(C(=O)CCc2cc(C(CCc3ccc(O)cc3OC)c3ccc(O)cc3)c(O)cc2OC)cc1 (racemic) — 4-HDHA level (human blood; 1 µM, together with: A23187): 29 ± 4 pg/mL
COc1ccc(NC(=O)c2ccc3[nH]c(-c4ccc(N(C)C)cc4)nc3c2)cn1 — tumour volume (Lewis lung carcinoma, mice, syngeneic graft, subcutaneous; intraperitoneal, 25 mg/kg daily, day 3): 164 mm3 and 222 mm3 and 209 mm3 and 144 mm3 and 111 mm3
CC(=O)[O-].O.O.O.O.[Ni+2].[O-]c1ccc(Br)cc1C=NCCN1CCOCC1 — inhibition (DPPH radical scavenging; 200 µM): 50.4%
COc1ccc2c(c1)c(CC(=O)[O-])c(C)n2C(=O)c1ccc(Cl)cc1.COc1ccc2c(c1)c(CC(=O)[O-])c(C)n2C(=O)c1ccc(Cl)cc1.[Co+2].c1c[nH]cn1.c1c[nH]cn1 — ABTS radical cation scavenging (ABTS; DMSO; concentration not given): 95.53 ± 0.62%
CC(CCC(=O)NCc1ccc(C(=O)NO)cc1)C1CCC2C3C(O)CC4CC(O)CCC4(C)C3CCC12C (stereo not shown) — relative abundance (refers to: Glyco-conj; PCK rat (Pkhd1 mutant), peripheral blood; oral gavage, dose not given, 5 months; relative to: total bile acids): 14%
C=CC(=O)N1CC2C(=O)N(CCN(C)C)c3c(c4cc(Cl)c(-c5c(O)cccc5F)nc4n(-c4c(C)ccnc4C(C)C)c3=O)N2CC1C (stereo not shown) — tumour growth inhibition (NCI-H358, mouse xenograft; oral, 10 mg/kg once daily): 103%
COC1CN([C@H]2CC[C@H]([C@@]3(C)Oc4c(Cl)cc(C(=O)NCc5c(SC)cc(C)[nH]c5=O)c(C)c4O3)CC2)C1 — log2 fold change (RNA-seq, refers to: PDZD3; human, whole blood; dose not given, 24 h; relative to: pretreatment baseline): 2.28
NC[C@@H](C(=O)Nc1ccc(-c2cn[nH]c2)cc1)c1ccccc1 — IOP (tonometry; NZW rabbit, magnetic bead-induced ocular hypertension; ocular, 0.03%, 48 h): 35.6 mmHg
CC[C@H](C)[C@H](NC(=O)[C@@H](NC(=O)c1ccnc(Cl)c1Cl)C(C)(C)C)C(=O)N[C@H](C(=O)N[C@H](C(=O)N[C@H](C(=O)N[C@@H](CCC(N)=O)C(=O)N[C@@H](Cc1c[nH]cn1)C(=O)N[C@H](CC(C)C)C(=O)N[C@@H](CO)C(=O)NCCOCCOCC(=O)N[C@@H](CCCCNC(=O)CC[C@@H]1NC(=O)[C@@H](CCCNC(=N)N)NC(=O)[C@H](CCCNC(=N)N)NC(=O)[C@@H](CCCNC(=N)N)NC(=O)[C@H](CCCNC(=N)N)NC(=O)[C@H](Cc2ccc3ccccc3c2)NC(=O)[C@@H](Cc2ccccc2)NC1=O)C(N)=O)[C@@H](C)O)[C@@H](C)CC)C(C)(C)O — BALF TNF-alpha and IL-6 levels (mouse, acute lung injury, LPS-induced; intranasal, 3 mg/kg, 6 h, together with: LPS 4 mg/kg intranasal; relative to: vehicle): decreased
CN1CCC[C@]1(C)/C=C/S(=O)(=O)NC(=O)Nc1c2c(cc3c1CCC3)CCC2 — IL-1β inhibition (human, whole blood ex vivo; 100 mg twice daily, day 14, 24 h, multiple ascending dose, together with: LPS and ATP): 94.7%
COc1cc(O)ccc1CCC(c1ccc(O)cc1)c1cc2c(c(C)c1O)OC(c1ccc(O)cc1)CC2 (mixture of isomers) — amount (refers to: LTB4; human whole blood; 30 µM, together with: Escherichia coli): 560 ± 366 pg/mL blood
CCC(=O)N[C@@H](C)C(=O)OCC(=O)N[C@@H](C)C(=O)O — chain scission rate constant (water; pH 6, 50 °C): 0.0083 h⁻¹
COc1cc2c(NC3CCN(C(C)C)CC3)cc(N3CCOCC3)nc2cc1OCCCN1CCCC1 — log2 fold change (TMT proteomics, refers to: PPIA; 5xFAD mice, hippocampus; dose not given; relative to: untreated 5xFAD mice): -0.0272
CN1CCCNC(=O)c2cccc(c2)C(=O)NCCCN(C)CCCNc2cccc3c2C(=O)c2cccc(c2C3=O)NCCC1 — tumour volume (KSN/Slc nude mice, SAS xenograft; dose not given, day 8, 192 h): 289 mm3 and 240 mm3 and 377 mm3 and 246 mm3 and 188 mm3
O=[N+]([O-])[O-].O=c1c(C=NN=C([S-])Nc2ccccc2)coc2ccccc12.[Cu+2].c1ccc(-c2ccccn2)nc1 — nicked circular DNA (DNA cleavage; supercoiled pUC19 DNA; 100 µM, 30 min, together with: ascorbic acid): 20%
COc1ccc2cc3[n+](cc2c1OCCCOC(=O)c1cscn1)CCc1cc2c(cc1-3)OCO2 — plasma PCSK9 level (ELISA; hyperlipidemic hamster; dose not given): decreased

Repeated from above:
O=S(=O)(NCc1ccncc1)c1ccc(C2CCCCC2)cc1 — downregulated genes number (bulk RNA sequencing; CK-p25 mice, female, microglia; intraperitoneal, 0.3 mg/kg daily for 2 weeks, 336 h): 746 genes
COc1ccc(C(=O)CCc2cc(C(CCc3ccc(O)cc3OC)c3ccc(O)cc3)c(O)cc2OC)cc1 (racemic) — 4-HDHA level (human blood; 1 µM, together with: A23187): 29 ± 4 pg/mL
